Results pooled from the literature.
Protocols differ between the studies behind these lines. ± marks the error that the study gave.

Compound	test	system	conditions	measurement	result
CN(C)C(=O)c1cc2cnc(Nc3ccc(N4CCNCC4)cn3)nc2n1C1CCCC1	measured: dyspnoea	HR+/HER2− advanced breast cancer patients	oral, dose not given, not drug-related	serious adverse event incidence	1.5%
O.O.O.O.O.O.[Cl-].[Cl-].[Co+2]	–	rat female, urine	oral, 10 mg/kg single, day 1	cobalt in urine	4970 µg/L
O=S(=O)(Nc1ccccc1)c1ccc(NC(=S)Nc2ccccc2)cc1	measured: NE%	female mouse, blood	oral, 5 mg/kg daily, 14 days	blood cell fraction	18.8%
Cn1c(-c2ccc(C(N)=O)cc2F)nnc1C(C)(C)Oc1c(F)cc(Cl)cc1F	–	human	oral, 1 mg, single ascending dose	medical device site reaction TEAE	0%
O=C(NCCN1CCCC1)c1cc(-c2ccc(CN3CCOCC3)cc2)nc2ccc(F)cc12	–	NMRI mouse Plasmodium berghei-infected, blood	oral, 0.3 mg/kg, 24 h, monotherapy	concentration at 24 h	8 nM
CCc1cc(C(=O)NC)c2nccc(N3CCc4c(cc(Cn5ccnc5)cc4-c4cn(C)nc4C(F)(F)F)C3=O)c2c1	–	Sprague Dawley rats, male, bile duct-cannulated, bile	oral, 50 mg/kg, 0--24 h	amount excreted	62000 ± 50000 ng
COc1cc2c(Oc3ccc4[nH]c(C)cc4c3F)ccnc2cc1OCC1(N)CC1	–	paediatric recurrent refractory sarcoma	8 mg/kg	grade 1 or 2 Hyperthyroidism	0%
C[C@@H]1NC(=O)[C@H](CCCCNC(=O)CO/N=C/C(=O)NCCCC[C@@H]2NC(=O)[C@@H](Cc3ccccc3)NC(=O)[C@H](CC(=O)O)NC(=O)CNC(=O)[C@H](CCCNC(=N)N)NC2=O)NC(=O)CNC(=O)[C@@H]2CCCN2C(=O)[C@H](CCCCNC(=O)CO/N=C/C(=O)NCCCC[C@@H]2NC(=O)[C@@H](Cc3ccccc3)NC(=O)[C@H](CC(=O)O)NC(=O)CNC(=O)[C@H](CCCNC(=N)N)NC2=O)NC(=O)[C@H](CCCCNC(=O)CCNC(=O)CCNC(=O)CCNC(=O)[C@H](CCCCN)NC(=O)[C@H](Cc2ccccc2)NC(=O)CNC(=O)CN2CCCNCCNCCCNCC2)NC(=O)[C@H](CCCCNC(=O)CO/N=C/C(=O)NCCCC[C@@H]2NC(=O)[C@@H](Cc3ccccc3)NC(=O)[C@H](CC(=O)O)NC(=O)CNC(=O)[C@H](CCCNC(=N)N)NC2=O)NC(=O)CNC(=O)[C@@H]2CCCN2C(=O)[C@H](CCCCNC(=O)CO/N=C/C(=O)NCCCC[C@@H]2NC(=O)[C@@H](Cc3ccccc3)NC(=O)[C@H](CC(=O)O)NC(=O)CNC(=O)[C@H](CCCNC(=N)N)NC2=O)NC1=O [copper-64 labelled]	biodistribution after PET	mouse, U-87 MG tumour xenograft, kidney	intravenous, 24 h	tissue uptake	10.9 ± 5.03 %ID/g
CCc1ccc(CC/C=C/c2ccc3c(c2)C(=O)CC3)cc1	–	Sprague-Dawley rat, male	oral, 30 mg/kg/day, 14 days	LDH serum activity	386 U/L
COc1ccc([C@@H]2CC(=O)c3c(O)cc(O)cc3O2)cc1O	–	Sprague-Dawley rat, male, lean, urine	oral, 100 mg/kg of neohesperidin, 48 h, after β-glucuronidase/sulfatase, total	amount excreted in urine	110 ± 15.7 ng
C=CC(=O)N[C@H]1C=C(C)c2c(-c3cnc4ccccc4c3)c3c(N)ncnc3n2C1	two-compartment PK model	mouse, plasma	oral, dose not given	central volume of distribution	0.317 L
CN1CC[C@@H](c2c(O)cc(O)c3c(=O)cc(-c4ccc(C(F)(F)F)cc4Cl)oc23)[C@@H]1CO	measured: Neutropenia	AML	oral, 200 mg, intermittent dosing	patients with adverse event	20%
CCCCN1CCC(COC(=O)c2ccc(N)c(O[11CH3])c2)CC1	PET	rhesus monkey, whole brain	dose not given, average	time to peak radioactivity	5 min

A few entries again:
Compound	test	system	conditions	measurement	result
C[C@@H]1NC(=O)[C@H](CCCCNC(=O)CO/N=C/C(=O)NCCCC[C@@H]2NC(=O)[C@@H](Cc3ccccc3)NC(=O)[C@H](CC(=O)O)NC(=O)CNC(=O)[C@H](CCCNC(=N)N)NC2=O)NC(=O)CNC(=O)[C@@H]2CCCN2C(=O)[C@H](CCCCNC(=O)CO/N=C/C(=O)NCCCC[C@@H]2NC(=O)[C@@H](Cc3ccccc3)NC(=O)[C@H](CC(=O)O)NC(=O)CNC(=O)[C@H](CCCNC(=N)N)NC2=O)NC(=O)[C@H](CCCCNC(=O)CCNC(=O)CCNC(=O)CCNC(=O)[C@H](CCCCN)NC(=O)[C@H](Cc2ccccc2)NC(=O)CNC(=O)CN2CCCNCCNCCCNCC2)NC(=O)[C@H](CCCCNC(=O)CO/N=C/C(=O)NCCCC[C@@H]2NC(=O)[C@@H](Cc3ccccc3)NC(=O)[C@H](CC(=O)O)NC(=O)CNC(=O)[C@H](CCCNC(=N)N)NC2=O)NC(=O)CNC(=O)[C@@H]2CCCN2C(=O)[C@H](CCCCNC(=O)CO/N=C/C(=O)NCCCC[C@@H]2NC(=O)[C@@H](Cc3ccccc3)NC(=O)[C@H](CC(=O)O)NC(=O)CNC(=O)[C@H](CCCNC(=N)N)NC2=O)NC1=O [copper-64 labelled]	biodistribution after PET	mouse, U-87 MG tumour xenograft, kidney	intravenous, 24 h	tissue uptake	10.9 ± 5.03 %ID/g
CN(C)C(=O)c1cc2cnc(Nc3ccc(N4CCNCC4)cn3)nc2n1C1CCCC1	measured: dyspnoea	HR+/HER2− advanced breast cancer patients	oral, dose not given, not drug-related	serious adverse event incidence	1.5%
